{"data": "Results gathered from unrelated publications", "note": "Parts stem from different laboratories: compare values within a part only."}
{"data": "Block 1", "target": "Sal-like protein 4, full length isoform A (SALL4, Homo sapiens, UniProt Q9UJQ4, residues 1-1053)", "method": "universal PBM", "form": "double-stranded DNA, one strand shown", "medium": "in vitro", "concentration": "600 nM", "setting": "8-mer, flanks averaged, mean of replicates", "direction": "higher = stronger binding", "UniProt Q9UJQ4, sequence (whole entry, looked up)": "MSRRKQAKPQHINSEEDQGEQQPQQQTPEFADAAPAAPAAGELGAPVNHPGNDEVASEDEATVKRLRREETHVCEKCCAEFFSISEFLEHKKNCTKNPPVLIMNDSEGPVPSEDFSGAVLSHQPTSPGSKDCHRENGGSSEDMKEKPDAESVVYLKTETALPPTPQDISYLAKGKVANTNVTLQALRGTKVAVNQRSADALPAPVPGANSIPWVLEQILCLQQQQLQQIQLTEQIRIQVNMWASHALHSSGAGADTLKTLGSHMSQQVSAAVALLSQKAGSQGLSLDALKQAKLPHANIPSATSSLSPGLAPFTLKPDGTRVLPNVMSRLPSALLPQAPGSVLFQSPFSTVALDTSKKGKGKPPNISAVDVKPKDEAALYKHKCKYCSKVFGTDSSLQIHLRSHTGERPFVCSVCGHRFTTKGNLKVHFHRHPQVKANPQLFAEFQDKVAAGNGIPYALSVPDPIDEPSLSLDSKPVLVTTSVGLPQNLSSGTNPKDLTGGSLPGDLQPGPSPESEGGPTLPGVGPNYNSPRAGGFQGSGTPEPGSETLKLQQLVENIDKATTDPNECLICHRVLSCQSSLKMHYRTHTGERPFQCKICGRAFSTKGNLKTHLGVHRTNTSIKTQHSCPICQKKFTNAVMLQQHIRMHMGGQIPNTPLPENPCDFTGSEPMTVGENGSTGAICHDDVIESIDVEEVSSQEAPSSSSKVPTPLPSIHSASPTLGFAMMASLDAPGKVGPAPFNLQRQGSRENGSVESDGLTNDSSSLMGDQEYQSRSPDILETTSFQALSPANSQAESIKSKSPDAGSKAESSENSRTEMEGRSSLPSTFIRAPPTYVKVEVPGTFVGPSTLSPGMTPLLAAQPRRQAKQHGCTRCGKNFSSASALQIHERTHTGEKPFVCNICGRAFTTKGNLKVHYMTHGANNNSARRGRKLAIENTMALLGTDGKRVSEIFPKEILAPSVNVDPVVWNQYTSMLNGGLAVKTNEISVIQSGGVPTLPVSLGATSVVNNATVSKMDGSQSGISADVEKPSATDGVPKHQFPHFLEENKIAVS"}
{"Strand": "AGCCATGA", "E-score": -0.0141}
{"Strand": "CCCACTTA", "E-score": 0.107}
{"Strand": "AAGGTGGT", "E-score": 0.0426}
{"Strand": "ACCTTACA", "E-score": 0.141}
{"Strand": "AGGTCTGA", "E-score": -0.0468}
{"Strand": "AACAGGGT", "E-score": -0.197}
{"Strand": "GAGTGGCA", "E-score": -0.166}
{"Strand": "GGAGCGAC", "E-score": -0.145}
{"Strand": "TCTGGACA", "E-score": -0.0676}
{"Strand": "ATAAAACG", "E-score": 0.257}
{"Strand": "CTTTCAAC", "E-score": 0.0269}
{"Strand": "ACTGAAAA", "E-score": 0.212}
{"Strand": "CCACTCAA", "E-score": 0.149}
{"Strand": "AGCAAACA", "E-score": 0.0275}
{"Strand": "GTTTGATA", "E-score": 0.203}
{"Strand": "ACGTAATC", "E-score": 0.106}
{"Strand": "CAGGGAAC", "E-score": -0.133}
{"Strand": "GATCATTA", "E-score": 0.236}
{"Strand": "AACACCTT", "E-score": -0.01}
{"Strand": "ACATGCTC", "E-score": 0.0425}
{"Strand": "GCTATCAC", "E-score": -0.0424}
{"Strand": "GAGAACTC", "E-score": -0.205}
{"Strand": "CCCGCCCA", "E-score": -0.107}
{"Strand": "ACCCCCTG", "E-score": -0.267}
{"Strand": "AACAGTGT", "E-score": 0.141}
{"data": "Block 2", "target": "Histone acetyltransferase KAT6A, winged helix 2, GST fusion (KAT6A, Homo sapiens, UniProt Q92794, residues 85-181)", "method": "protein binding microarray", "form": "double-stranded DNA, one strand shown", "medium": "in vitro", "concentration": "not given", "setting": "8-mer, flanks averaged, mean of 2 arrays, mostly near background", "baseline": "not given", "direction": "higher = stronger binding", "Residues (chain)": "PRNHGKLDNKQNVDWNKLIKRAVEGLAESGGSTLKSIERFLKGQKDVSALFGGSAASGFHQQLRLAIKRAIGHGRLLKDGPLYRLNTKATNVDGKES"}
{"Strand": "GACCCAAC", "E-score": 0.00193}
{"Strand": "ACGTAGGC", "E-score": -0.0307}
{"Strand": "CCTCCAAC", "E-score": 0.0268}
{"Strand": "CCTCATAC", "E-score": -0.0523}
{"Strand": "AAAATGCA", "E-score": 0.0523}
{"Strand": "ATTGAAAC", "E-score": -0.0988}
{"Strand": "CCGTGAGC", "E-score": 0.0447}
{"Strand": "CGCGGTAA", "E-score": 0.159}
{"Strand": "ACCGGGGG", "E-score": 0.0726}
{"Strand": "AACAGCAC", "E-score": 0.139}
{"Strand": "CATTCGGC", "E-score": 0.164}
{"Strand": "AAAAGTAC", "E-score": 0.0247}
{"Strand": "GTTGAATA", "E-score": 0.0733}
{"Strand": "CTGAACAC", "E-score": 0.0442}
{"Strand": "GTGGCACA", "E-score": -0.141}
{"Strand": "CGACGCAA", "E-score": 0.228}
{"Strand": "CAGTAGTC", "E-score": -0.261}
{"Strand": "GTCTCTAA", "E-score": 0.0577}
{"Strand": "CGACAGTC", "E-score": -0.0965}
{"Strand": "ACTGGCAG", "E-score": 0.0108}
{"Strand": "TCACCGGA", "E-score": 0.0136}
{"Strand": "CGCCCAGC", "E-score": 0.146}
{"Strand": "ATCAGTGG", "E-score": -0.0964}
{"Strand": "GGCTCACC", "E-score": -0.00317}
{"Strand": "CGGCTCCA", "E-score": 0.111}
{"data": "Block 3", "target": "RNA binding protein fox-1 homolog 2, RRM domain, GST-SBP tag (RBFOX2, Homo sapiens, UniProt O43251-10, residues 100-194)", "method": "RNA Bind-n-Seq", "form": "RNA", "medium": "in vitro", "concentration": "365 nM", "setting": "natural RNA segment, single round, ends assumed", "baseline": "no-protein control", "direction": "higher = stronger binding", "shared flanks, not repeated": "GGGAGUUCUACAGUCCGACGAUC … UGGAAUUCUCGGGUGCCAA", "Construct (chain)": "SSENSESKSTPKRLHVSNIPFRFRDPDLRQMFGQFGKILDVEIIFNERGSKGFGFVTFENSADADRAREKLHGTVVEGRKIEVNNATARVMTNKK"}
{"Strand": "AUCCCAGAGGGGCCUCAUCAGCAAAGACAGAAACUGAUGUUCCAUGCAUGUCCCUGCUUCCAAAGCCUGACCUUCCAAAGCUUGCUUCCUUCCUCCUGGCUGCACAGACA", "RBNS enrichment (R)": 2.67}
{"Strand": "AUAACCAGCAGUCAGAGAUUCUUUUUUAAUCCUUGGAGACAGGGAAAGGGACAGAUAGCUUUCCAAGGACAUGAGACUGUGCAAAGCCUCUUUGCUGUUUCUCUGGGCUC", "RBNS enrichment (R)": 0.346}
{"Strand": "GGGACCCCUCCUCAUGAACUCUGGAGCCCUGAGAGGAGAGGGGCAGCCCCCCACCUUGUCACCCUCAGGGCUUCCCCUUCUGUCCUCAUUCUUAGAGACUGCUUCUCCCA", "RBNS enrichment (R)": 0.543}
{"Strand": "UGACAUAUGAAUCUAUUUAUUAUGUAGUACUGUGGCAGAGAAGGAAUCCAGGGGCCUGCACUGAUCGGGUAGCAGCUACUUUGCCUGUCCUUGGCCGUCUCCCUCAGCUC", "RBNS enrichment (R)": 3.15}
{"Strand": "UUUCAGAGUAAAAGUAAGGCAUGUUUCUGAGCAACAUUGAUAAUUUCUUAAUUUGCAAAUUUCUUCUUAUUUUGGUACUUGGAAUAUAGUGUGAGAUUUUUUAUUUCUAA", "RBNS enrichment (R)": 2.11}
{"Strand": "CUCCAUUCCUGAGCAGGACUAGUCCGUCCCAGAGGGCCACUGCUAGACUUCCUGUUAGGGGCAAUGUGUUCAUUAUAAAGGCAUAAGGACACCACACCAGCUUGUUGGUU", "RBNS enrichment (R)": 0.519}
{"Strand": "AUCUUAACUCCACGCUUUACGAUAUUAUAAAAGUUGAAUGGUUCCUCUUGGUAAGGAUAUUUGCUUACAAGUGCUAGGAAAUAACUCACUGAUACCUGCGUUAACAUACU", "RBNS enrichment (R)": 1.07}
{"Strand": "GUGGGGAAAGGGAGGUCAGAGUACCAGGAACUGCUGAUGUCUGCUCUAAAGUACUUGAGUGGUGCUAAGCUGGGCCUUGCAGAGCUUAGCUUAUAGCAGACCUUGAGCCU", "RBNS enrichment (R)": 1.1}
{"data": "Block 4", "target": "Protein max, full length (MAX, Homo sapiens, UniProt P61244-2, residues 1-151)", "method": "protein-binding microarray", "form": "double-stranded DNA, one strand shown", "medium": "in vitro", "concentration": "not given", "setting": "k-mer, scored over probes, only values ≥0.25", "direction": "higher = stronger binding"}
{"Strand": "CATGCTTC", "E-score": 0.447}
{"Strand": "AACCACGC", "E-score": 0.448}
{"Strand": "CACGCACC", "E-score": 0.369}
{"Strand": "GCGTGATA", "E-score": 0.391}
{"Strand": "CGTGGCCC", "E-score": 0.358}
{"Strand": "AAACGTGT", "E-score": 0.388}
{"Strand": "ACGTGGTA", "E-score": 0.45}
{"Strand": "CCGGCACG", "E-score": 0.35}
{"Strand": "GTGACTCA", "E-score": 0.322}
{"Strand": "ACGCTGAC", "E-score": 0.307}
{"Strand": "ATGCGCGC", "E-score": 0.274}
{"Strand": "CGTGATGA", "E-score": 0.294}
{"Strand": "CGCGAGCA", "E-score": 0.291}
{"Strand": "CCATGTGC", "E-score": 0.487}
{"Strand": "ACGTGAGA", "E-score": 0.38}
{"Strand": "ATCGCCAC", "E-score": 0.258}
{"Strand": "CTAGTCAC", "E-score": 0.28}
{"data": "Block 5", "target": "Centromere-binding protein 1, full length, His-tagged (CBF1, Saccharomyces cerevisiae, UniProt P17106, residues 1-351)", "method": "competition protein-binding microarray", "form": "double-stranded DNA, one strand shown", "medium": "in vitro", "concentration": "2 µM", "setting": "whole 60-bp probe, lowest competitor level", "added": "Pho4 competitor, 0.05 µM", "direction": "higher = stronger binding", "shared flanks, not repeated": "… GTCTTGATTCGCTTGACGCTGCTG", "UniProt P17106, sequence (whole entry, looked up)": "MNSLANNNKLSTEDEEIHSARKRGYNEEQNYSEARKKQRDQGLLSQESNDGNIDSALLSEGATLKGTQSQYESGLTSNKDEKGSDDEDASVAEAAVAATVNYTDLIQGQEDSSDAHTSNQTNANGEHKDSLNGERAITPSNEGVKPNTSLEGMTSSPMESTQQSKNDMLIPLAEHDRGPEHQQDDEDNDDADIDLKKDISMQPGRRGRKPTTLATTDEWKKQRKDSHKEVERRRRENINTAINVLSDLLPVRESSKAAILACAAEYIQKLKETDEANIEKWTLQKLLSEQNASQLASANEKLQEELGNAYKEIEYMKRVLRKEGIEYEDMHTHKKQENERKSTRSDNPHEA"}
{"Strand": "GGGCACAAGGAAAAACACGTGACGAATTTCTTTTTT", "fluorescence intensity [a.u.]": 7570}
{"Strand": "AAAGCGGTAATTTGGTCGGTGGGTGCAGATATCTAT", "fluorescence intensity [a.u.]": 67.3}
{"Strand": "CAGACGGGAAGCAGGCGCGTGCTGGCGGTGACCTGG", "fluorescence intensity [a.u.]": 66.1}
{"Strand": "ACAACTATAATGGATGACATGATGAATATGTAGTGG", "fluorescence intensity [a.u.]": 85.6}
{"Strand": "TGCAAACCTGCAATACTCGTGATGGATATTTAATTA", "fluorescence intensity [a.u.]": 470}
{"Strand": "TAGGACCAATTTGGCAATGTGACTCGCGGAATATGG", "fluorescence intensity [a.u.]": 151}
{"Strand": "CTGTATACCTAATGAATCGTGGGTATTGTCTTCGTC", "fluorescence intensity [a.u.]": 80.4}
{"Strand": "TGGCGCCATCGCCATCACGATTTCAACCATGTCAAT", "fluorescence intensity [a.u.]": 61.1}
{"Strand": "AAAGCGGTAATTTGATCCGTGGGTGCAGATATCTAT", "fluorescence intensity [a.u.]": 84.3}
{"Strand": "ATTCTGAGCAATATCTCCGTGCCAGAAATAAGCCCC", "fluorescence intensity [a.u.]": 69.5}
{"Strand": "CTCAAGGGCGTACACCATGTGTTGGACATAAACCTC", "fluorescence intensity [a.u.]": 88.5}
{"Strand": "GAATTCTGTGCACTTGCCGTGATGGTGTTCGTTACA", "fluorescence intensity [a.u.]": 89.2}
{"Strand": "AAATTACTAAGTTGCGTTGTGGGTGACGCCGTATGA", "fluorescence intensity [a.u.]": 70.9}
{"Strand": "CGGGGTTAAGTTTGTCACGCTACTTGCTTGCAGCAG", "fluorescence intensity [a.u.]": 166}
{"Strand": "CTTCTGTAAATTTGGCAAGTGGGTGGACGCGCCCCG", "fluorescence intensity [a.u.]": 82.3}
{"Strand": "ACCAATGGATGTTAGCACGTGTTTCAACTCAGCGGC", "fluorescence intensity [a.u.]": 2040}
{"Strand": "AAATTACTAAGTTTTCACGTGATCTACCCCGTATGA", "fluorescence intensity [a.u.]": 5680}
{"Strand": "AAAAGATATTATCCTCACGTGGAGTTATTGTAAAAA", "fluorescence intensity [a.u.]": 869}
{"note": "For quick reference, copied from above (block 2):"}
{"Strand": "AAAATGCA", "E-score": 0.0523}
{"Strand": "ATCAGTGG", "E-score": -0.0964}
{"Strand": "CGACGCAA", "E-score": 0.228}
{"Strand": "ACTGGCAG", "E-score": 0.0108}
{"Strand": "ACCGGGGG", "E-score": 0.0726}
{"Strand": "CCTCATAC", "E-score": -0.0523}
